# Results from different studies.
# Compare with care: the assays were run in different laboratories. ± gives the spread as reported.
# MRGPRX2: Mas-related G-protein coupled receptor member X2 (MRGPRX2, Homo sapiens, UniProt Q96LB1)
# Chain of UniProt Q96LB1 (whole entry, looked up): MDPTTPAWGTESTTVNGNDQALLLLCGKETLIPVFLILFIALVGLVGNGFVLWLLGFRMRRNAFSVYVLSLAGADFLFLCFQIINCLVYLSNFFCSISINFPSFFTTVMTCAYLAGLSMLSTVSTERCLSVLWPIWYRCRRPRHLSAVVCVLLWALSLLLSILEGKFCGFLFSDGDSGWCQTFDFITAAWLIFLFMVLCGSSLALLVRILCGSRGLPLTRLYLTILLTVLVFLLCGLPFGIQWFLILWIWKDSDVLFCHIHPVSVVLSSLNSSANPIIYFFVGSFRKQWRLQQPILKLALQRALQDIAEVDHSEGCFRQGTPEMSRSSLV
# Chain of UniProt P43115 (whole entry, looked up): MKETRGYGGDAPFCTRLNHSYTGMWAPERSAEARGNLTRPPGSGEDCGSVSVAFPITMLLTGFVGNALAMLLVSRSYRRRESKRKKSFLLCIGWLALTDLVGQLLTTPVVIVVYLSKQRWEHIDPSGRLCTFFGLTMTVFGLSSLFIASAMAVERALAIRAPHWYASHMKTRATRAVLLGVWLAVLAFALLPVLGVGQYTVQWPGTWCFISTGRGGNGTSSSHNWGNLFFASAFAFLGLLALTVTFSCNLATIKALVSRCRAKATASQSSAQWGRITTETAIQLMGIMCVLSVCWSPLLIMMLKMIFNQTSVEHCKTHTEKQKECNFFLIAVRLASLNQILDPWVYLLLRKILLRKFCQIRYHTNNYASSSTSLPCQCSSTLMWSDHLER
# Chain of UniProt P50552 (whole entry, looked up): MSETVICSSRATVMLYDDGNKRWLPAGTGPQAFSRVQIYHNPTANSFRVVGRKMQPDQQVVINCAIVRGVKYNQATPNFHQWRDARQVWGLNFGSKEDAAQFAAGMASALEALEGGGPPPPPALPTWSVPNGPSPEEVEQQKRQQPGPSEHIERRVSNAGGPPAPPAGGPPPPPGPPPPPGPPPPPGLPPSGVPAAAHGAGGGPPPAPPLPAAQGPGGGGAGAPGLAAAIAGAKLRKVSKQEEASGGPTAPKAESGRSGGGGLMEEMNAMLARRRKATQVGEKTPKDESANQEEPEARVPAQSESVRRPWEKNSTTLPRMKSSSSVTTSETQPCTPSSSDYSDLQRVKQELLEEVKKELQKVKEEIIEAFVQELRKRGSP
# Chain of UniProt P34995 (whole entry, looked up): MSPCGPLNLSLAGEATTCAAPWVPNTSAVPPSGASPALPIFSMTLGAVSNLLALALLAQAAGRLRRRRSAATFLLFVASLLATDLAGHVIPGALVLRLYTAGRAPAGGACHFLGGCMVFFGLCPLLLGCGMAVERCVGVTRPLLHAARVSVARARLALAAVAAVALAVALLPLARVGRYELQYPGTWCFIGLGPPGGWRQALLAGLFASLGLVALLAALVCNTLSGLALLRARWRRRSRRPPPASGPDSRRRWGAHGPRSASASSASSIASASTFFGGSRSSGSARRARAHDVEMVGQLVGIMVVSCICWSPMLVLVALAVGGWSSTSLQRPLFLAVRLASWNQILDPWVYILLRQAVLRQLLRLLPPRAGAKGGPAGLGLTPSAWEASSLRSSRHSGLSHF
# Chain of UniProt P10619 (whole entry, looked up): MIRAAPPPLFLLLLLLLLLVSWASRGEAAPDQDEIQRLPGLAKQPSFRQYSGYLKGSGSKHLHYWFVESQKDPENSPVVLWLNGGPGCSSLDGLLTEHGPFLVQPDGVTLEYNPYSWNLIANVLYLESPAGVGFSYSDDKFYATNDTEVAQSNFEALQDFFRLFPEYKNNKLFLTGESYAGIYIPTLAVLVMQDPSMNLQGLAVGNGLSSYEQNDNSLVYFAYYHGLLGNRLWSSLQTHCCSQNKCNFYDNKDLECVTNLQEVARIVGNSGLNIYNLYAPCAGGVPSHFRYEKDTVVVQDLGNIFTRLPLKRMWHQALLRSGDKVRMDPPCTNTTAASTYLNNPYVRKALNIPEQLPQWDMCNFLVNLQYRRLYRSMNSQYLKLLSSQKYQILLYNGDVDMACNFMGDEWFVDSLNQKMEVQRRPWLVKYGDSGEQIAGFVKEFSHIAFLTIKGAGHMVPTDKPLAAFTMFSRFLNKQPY
# Chain of UniProt P42336 (whole entry, unmodified, looked up): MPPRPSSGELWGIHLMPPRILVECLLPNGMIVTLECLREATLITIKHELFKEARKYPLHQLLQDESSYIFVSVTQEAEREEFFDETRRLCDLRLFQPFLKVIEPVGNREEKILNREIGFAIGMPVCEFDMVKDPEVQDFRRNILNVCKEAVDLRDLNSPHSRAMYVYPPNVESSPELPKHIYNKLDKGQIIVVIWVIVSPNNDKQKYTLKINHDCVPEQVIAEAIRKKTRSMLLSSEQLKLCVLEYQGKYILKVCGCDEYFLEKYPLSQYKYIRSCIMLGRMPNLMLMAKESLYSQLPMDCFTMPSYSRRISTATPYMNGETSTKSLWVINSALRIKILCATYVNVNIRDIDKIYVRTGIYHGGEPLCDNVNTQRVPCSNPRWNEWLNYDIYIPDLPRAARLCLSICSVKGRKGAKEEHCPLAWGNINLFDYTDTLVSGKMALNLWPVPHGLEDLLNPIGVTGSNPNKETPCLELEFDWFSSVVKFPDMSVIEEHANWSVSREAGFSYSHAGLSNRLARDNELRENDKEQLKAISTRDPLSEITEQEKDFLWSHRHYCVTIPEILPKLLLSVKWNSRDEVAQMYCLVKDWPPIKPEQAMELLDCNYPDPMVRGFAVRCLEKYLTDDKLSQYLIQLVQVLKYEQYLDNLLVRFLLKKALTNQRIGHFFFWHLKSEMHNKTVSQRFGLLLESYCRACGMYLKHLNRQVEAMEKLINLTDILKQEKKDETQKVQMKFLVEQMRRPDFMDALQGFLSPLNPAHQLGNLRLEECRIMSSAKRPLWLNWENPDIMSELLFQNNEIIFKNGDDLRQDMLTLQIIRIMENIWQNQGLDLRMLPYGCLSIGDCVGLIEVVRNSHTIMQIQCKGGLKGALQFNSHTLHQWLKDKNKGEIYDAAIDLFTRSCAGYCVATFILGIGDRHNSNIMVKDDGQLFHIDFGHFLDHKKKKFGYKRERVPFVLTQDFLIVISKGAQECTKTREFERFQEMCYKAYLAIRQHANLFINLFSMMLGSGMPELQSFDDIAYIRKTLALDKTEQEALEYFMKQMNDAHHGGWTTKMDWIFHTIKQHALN
# Chain of UniProt P23443 (whole entry, looked up): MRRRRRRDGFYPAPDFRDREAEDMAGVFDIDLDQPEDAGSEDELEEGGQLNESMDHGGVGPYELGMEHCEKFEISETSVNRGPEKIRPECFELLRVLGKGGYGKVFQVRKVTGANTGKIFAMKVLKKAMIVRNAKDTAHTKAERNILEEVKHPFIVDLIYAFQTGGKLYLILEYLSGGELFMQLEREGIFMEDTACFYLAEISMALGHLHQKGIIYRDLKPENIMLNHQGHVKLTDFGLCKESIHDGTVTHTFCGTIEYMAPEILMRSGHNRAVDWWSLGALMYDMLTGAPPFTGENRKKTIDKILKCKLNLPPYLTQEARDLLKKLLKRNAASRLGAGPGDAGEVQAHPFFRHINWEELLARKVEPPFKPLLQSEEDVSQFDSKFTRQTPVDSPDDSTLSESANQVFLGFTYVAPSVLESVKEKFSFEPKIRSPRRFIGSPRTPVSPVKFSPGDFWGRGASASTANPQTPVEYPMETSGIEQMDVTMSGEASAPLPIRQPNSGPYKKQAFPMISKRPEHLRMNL
# Chain of UniProt Q15722 (whole entry, looked up): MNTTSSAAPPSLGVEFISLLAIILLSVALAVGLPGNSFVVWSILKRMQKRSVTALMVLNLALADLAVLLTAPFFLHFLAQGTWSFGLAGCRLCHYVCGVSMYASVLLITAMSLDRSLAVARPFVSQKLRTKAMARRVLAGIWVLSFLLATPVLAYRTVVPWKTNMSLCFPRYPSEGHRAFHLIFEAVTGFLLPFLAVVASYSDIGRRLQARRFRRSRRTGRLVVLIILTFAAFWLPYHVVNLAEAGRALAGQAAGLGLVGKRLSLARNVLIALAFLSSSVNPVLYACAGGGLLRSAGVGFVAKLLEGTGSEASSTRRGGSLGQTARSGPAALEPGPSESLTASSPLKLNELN
# Chain of UniProt Q8IVH8 (whole entry, looked up): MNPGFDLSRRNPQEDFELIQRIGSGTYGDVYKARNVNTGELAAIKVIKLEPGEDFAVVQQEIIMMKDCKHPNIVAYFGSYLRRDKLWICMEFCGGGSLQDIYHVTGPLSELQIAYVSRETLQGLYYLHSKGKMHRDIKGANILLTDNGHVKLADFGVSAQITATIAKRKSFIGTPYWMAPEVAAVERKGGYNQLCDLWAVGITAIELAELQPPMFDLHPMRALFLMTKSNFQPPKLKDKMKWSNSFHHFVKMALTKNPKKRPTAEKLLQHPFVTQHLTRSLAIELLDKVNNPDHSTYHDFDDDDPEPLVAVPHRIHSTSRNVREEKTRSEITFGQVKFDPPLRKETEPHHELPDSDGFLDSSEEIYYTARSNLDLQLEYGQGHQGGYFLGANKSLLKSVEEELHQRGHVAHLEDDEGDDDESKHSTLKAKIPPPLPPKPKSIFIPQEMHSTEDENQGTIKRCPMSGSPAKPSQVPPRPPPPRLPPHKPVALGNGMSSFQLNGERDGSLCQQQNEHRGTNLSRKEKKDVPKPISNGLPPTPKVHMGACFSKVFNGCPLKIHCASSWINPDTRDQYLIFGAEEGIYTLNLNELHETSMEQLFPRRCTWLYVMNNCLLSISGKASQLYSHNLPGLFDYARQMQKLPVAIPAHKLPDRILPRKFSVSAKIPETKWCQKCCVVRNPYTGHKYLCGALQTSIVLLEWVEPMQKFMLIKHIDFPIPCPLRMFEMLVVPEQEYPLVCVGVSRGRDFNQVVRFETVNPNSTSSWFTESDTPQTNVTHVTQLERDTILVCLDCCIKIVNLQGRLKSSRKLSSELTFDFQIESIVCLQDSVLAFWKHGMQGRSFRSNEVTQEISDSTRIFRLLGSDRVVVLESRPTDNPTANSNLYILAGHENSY
SMILES,target,test,test system,conditions,scale,measurement,value
CC(=O)N[C@@H](CO)C(=O)N[C@@H](Cc1ccccc1)C(=O)N[C@@H](CCC(=O)O)C(=O)N[C@@H](Cc1ccccc1)C(=O)N1CCC[C@H]1C(=O)N1CCC[C@H]1C(=O)N1CCC[C@H]1C(=O)N1CCC[C@H]1C(=O)N[C@H](C(=O)N[C@@H](CCC(=O)O)C(=O)N[C@@H](CC(=O)O)C(=O)N[C@@H](CCC(=O)O)C(=O)N[C@@H](CC(C)C)C(N)=O)[C@@H](C)O,"Vasodilator-stimulated phosphoprotein, EVH1 domain (VASP, Homo sapiens, UniProt P50552)",fluorescence titration,,25 °C,,binding free energy,-6.43 kcal/mol
O=C(Nc1cccnn1)N1CCC(=Cc2cccc(Oc3ccc(C(F)(F)F)cn3)c2)CC1,"Prostaglandin E2 receptor EP1 subtype (PTGER1, Homo sapiens, UniProt P34995)","binding, measured: EP1",,"10 µM, human, together with: [3H]prostaglandin E2",,inhibition,5%
CCCCCCCCCCCCCC[N+](C)(C)C,"Sodium channel protein type 4 alpha, BTX-activated (Oryctolagus cuniculus, UniProt G1SLL9)",,,,,k-1,14.5 s⁻¹
O=C(O)COP(=O)(O)O,"TPI1 (Saccharomyces cerevisiae, UniProt P00942, S211A)","enzyme activity, competitive inhibitor, GPDH/NADH-coupled",,"pH 6.4, 25 °C, ionic strength 0.1 NaCl, together with: glyceraldehyde 3-phosphate substrate",baseline: mutant over wild type,Ki ratio,126
NC[C@H](NC(=O)c1ccc(-c2ccc(Br)cc2)cc1)C(=O)NO,"UDP-3-O-acyl-N-acetylglucosamine deacetylase (Pseudomonas aeruginosa, UniProt P47205, C40S)",ITC,,"concentration not given, 298 K",,ΔS of binding,0.143 kJ/(mol·K)
Cc1ncc(C)n2nc(/C=C/c3nc(N4CCCC4)cc(N4CCOCC4)n3)nc12,central benzodiazepine receptor,radioligand binding,,10 µM,,inhibition,-3%
COc1ccc(N2C(=O)N(c3c(C)cccc3Cl)Cc3cnc(Nc4ccc(C5CCN(C)CC5)cc4OC)nc32)nc1,"Ribosomal protein S6 kinase beta-1 (RPS6KB1, Homo sapiens, UniProt P23443)","kinase activity, inhibitor",,"0.5 µM, kinase P70S6K1",,inhibition,5.28%
CC(C)(C)c1ccc(OP(=O)(Oc2ccc(C(C)(C)C)cc2)Oc2ccc(C(C)(C)C)cc2)cc1,"Acylamino-acid-releasing enzyme (Apeh, Mus musculus, UniProt Q8R146)",,mouse,dose not given,,enzyme activity inhibition,no inhibition
COc1cc(N)c(Cl)cc1C(=O)NC1CN2CCC1CC2 (stereo not shown),MRGPRX2,"β-arrestin recruitment, TANGO luminescence",,concentration not given,baseline: basal luminescence,log2 fold change,-0.196
O=C(Nc1cnccc1Cl)N1CCN(Cc2ccc3c(c2)OC(F)(F)O3)CC1,"Prostaglandin E2 receptor EP3 subtype (PTGER3, Homo sapiens, UniProt P43115)","radioligand binding, inhibitor",,"10 µM, human, together with: [3H]prostaglandin E2",,inhibition,-10%
CC[C@H](C)[C@H](NC(=O)CNC(=O)[C@@H](N)CCCCN)C(=O)N[C@@H](CC(C)C)C(=O)N[C@@H](CCCCN)C(=O)N[C@@H](CC(N)=O)C(=O)N[C@@H](CCCNC(=N)N)C(=O)N[C@@H](C)C(=O)N[C@@H](CCCNC(=N)N)C(=O)N[C@@H](CCCNC(=N)N)C(=O)N[C@@H](CCC(=O)O)C(=O)N[C@@H](CCCNC(=N)N)C(=O)N1CCC[C@H]1C(=O)NCC(=O)N[C@@H](CCCCN)C(=O)N[C@@H](CCCNC(=N)N)C(=O)N[C@@H](CCCCN)C(=O)N[C@@H](CC(N)=O)C(=O)N[C@H](C(=O)N[C@@H](Cc1c[nH]cn1)C(=O)N[C@@H](Cc1c[nH]c2ccccc12)C(=O)N1CCC[C@H]1C(=O)N[C@@H](CCC(=O)O)C(=O)N[C@@H](CCC(=O)O)C(=O)NCC(=O)N[C@@H](CCCCN)C(=O)N[C@@H](CC(C)C)C(=O)N[C@@H](CCCNC(=N)N)C(=O)N[C@@H](CCC(=O)O)C(=O)N[C@@H](Cc1ccc(O)cc1)C(=O)N[C@@H](Cc1ccccc1)C(=O)N[C@@H](Cc1ccc(O)cc1)C(=O)N[C@@H](Cc1ccccc1)C(=O)N[C@@H](CCC(=O)O)C(=O)N[C@@H](CC(C)C)C(=O)N[C@@H](CC(=O)O)C(=O)N[C@@H](CCC(=O)O)C(=O)N[C@@H](C)C(=O)N[C@@H](CCC(=O)O)C(=O)N[C@@H](CCCNC(=N)N)C(=O)N[C@H](C(=O)N[C@@H](CC(N)=O)C(=O)N[C@H](C(=O)O)C(C)C)C(C)C)C(C)C,"Serine/threonine-protein phosphatase PP1-alpha catalytic subunit (PPP1CA, Homo sapiens, UniProt P62136)",ITC,,"concentration not given, 25 °C, PP1α 7-330",,ΔG of binding,-11.5 ± 0.1 kcal/mol
CN(C(=O)n1cnc(-c2ccc[n+]([O-])c2)c1)C1CCCCC1,"Leukotriene B4 receptor 1 (LTB4R, Homo sapiens, UniProt Q15722)",radioligand binding,,"50 µM, together with: [3H]LTB4",,inhibition,-11%
O=P(O)(O)OC[C@H]1C[C@@](O)(CO)[C@@H](O)[C@H](O)[C@@H]1O,"2-epi-valiolone synthase (Actinosynnema mirum, UniProt C6WFL3)",phosphate release,,10 µM,,apparent Vmax,2.1 ± 0.2 µM/min
CC(CCn1ccc(-c2ccc(-c3cn(Cc4ccccn4)nn3)cc2)cc1=O)(C(=O)NO)S(C)(=O)=O (stereo not shown),"UDP-3-O-acyl-N-acetylglucosamine deacetylase (Pseudomonas aeruginosa, UniProt P47205)",fluorescence,,37 °C,,residence time,~120 min
CC(C)OC(=O)[C@H](C)NP(=S)(Oc1ccc(CCN2CCOCC2)cc1)c1ccccc1 (stereo partly shown),"Lysosomal protective protein (CTSA, Homo sapiens, UniProt P10619)",substrate,,"5 µM, pH 7.4, 37 °C",,DNS-NH2 formation rate constant,0.147 h⁻¹
Nc1ncc(-c2nc(N3CCOCC3)nc(N3CCOCC3)n2)c(C(F)F)n1,"Phosphatidylinositol 4,5-bisphosphate 3-kinase catalytic subunit alpha isoform (PIK3CA, Homo sapiens, UniProt P42336, E545A)",KINOMEscan,,10 µM,,remaining binding,0%
[2H]c1c([2H])c([C@]2([2H])CCCN2C(=O)C(C)(C)Oc2ccc3cn[nH]c3c2)c([2H])c([2H])c1C([2H])([2H])[2H],"Cyclin-dependent kinase 19 (CDK19, Homo sapiens, UniProt Q9BWU1)",KINOMEscan,,1 µM,baseline: DMSO control,remaining binding,98%
CC(=O)[C@]1(O)Cc2c(O)c3c(c(O)c2[C@@H](O[C@H]2C[C@H](N)[C@H](O)[C@H](C)O2)C1)C(=O)c1ccccc1C3=O,"Metallo-beta-lactamase type 2 (blaNDM-1, Klebsiella pneumoniae, UniProt C7C422)",inhibitor,,,,Hill coefficient,1.1
O=C1CC(C(=O)O)NC(=O)N1 (stereo not shown),"Dihydroorotate dehydrogenase A (fumarate) (pyrDA, Lactococcus lactis subsp. cremoris, UniProt A2RJT9, L71F)","flavin reduction, stopped-flow",Lactococcus lactis,"pH 8.5, 4 °C",,kred,0.015 ± 0.002 s⁻¹
CN1CCN(c2cc(-c3ccncc3)c(-c3ccc4ccccc4c3)nn2)CC1,MRGPRX2,"agonist, FLIPR",,12.5 µM,,activation,5.1%
Cl.Cn1c(=O)n(CCCCN2CCC3(CC2)OCc2ccccc23)c2ccccc21,"Sodium-dependent serotonin transporter (Slc6a4, Rattus norvegicus, UniProt P31652)",[3H]paroxetine binding,rat midbrain membranes,,baseline: DAT Ki over SERT Ki,selectivity ratio,~10 fold
C/C=C(/C)C(=O)O[C@H]1C(C)=C2[C@H]([C@@H]1OC(=O)CCCCCCC)[C@@](C)(OC(C)=O)C[C@H](OC(=O)CCC)[C@@]1(O)[C@H]2OC(=O)[C@@]1(C)O,"Protein transport protein Sec61 subunit alpha isoform 1 (Homo sapiens, UniProt P61619)","Sec61-dependent translocation, inhibitor, measured: CD4 signal peptide-FLuc reporter",HEK293,concentration not given,baseline: mock,FLuc/RLuc ratio,0.909
CC[C@H](C)[C@H](NC(=O)[C@@H](NC(=O)[C@H](CC(C)C)NC(=O)[C@H](CC(N)=O)NC(=O)[C@H](CC(=O)O)NC(=O)[C@H](CCC(=O)O)NC(=O)[C@@H](NC(=O)[C@@H](N)CCCNC(=N)N)[C@@H](C)CC)C(C)C)C(=O)N[C@H](C(=O)N[C@@H](CCCNC(=N)N)C(=O)O)[C@@H](C)CC,"Epithelial sodium channel subunit alpha (Homo sapiens, UniProt P37088)","binding, bio-layer interferometry",,,,kon,42.3 M⁻¹ s⁻¹
C[C@H]1COCCN1c1nc(NCc2cccnc2C(F)(F)F)c2cccnc2n1,"D(1A) dopamine receptor (DRD1, Homo sapiens, UniProt P21728)",binding,,CEREP panel,,IC50,> 100 µM
CC1(C)[C@H](C(=O)O[C@H](C#N)c2cccc(Oc3ccccc3)c2)[C@@H]1C=C(Br)Br,"uncharacterized protein (Anopheles coluzzii, UniProt A0A6E8VQK1)","enzyme activity, inhibitor",Sf9 cell homogenate,"0.0004546 µM, 0.1667 h, together with: α-naphthyl acetate substrate",baseline: no inhibitor,remaining activity,98.5%
O=C1c2ccccc2C(=O)C1C(=O)C(c1ccccc1)c1ccccc1,"Nuclear receptor subfamily 1 group I member 3 (Homo sapiens, UniProt Q14994)",,,concentration not given,,activity,inactive
Cc1nn(C)cc1-c1nc2c(N3CCN(Cc4ccc(Cl)cc4)CC3)c(Cl)cnc2[nH]1,"Mitogen-activated protein kinase kinase kinase kinase 3 (MAP4K3, Homo sapiens, UniProt Q8IVH8)",KINOMEscan,,1 µM,baseline: DMSO control,remaining binding,62%
CO[P@@](=O)(Oc1ccccc1)Oc1ccc([N+](=O)[O-])cc1,"had (Sphingobium sp. TCM1, UniProt A0A077JBW9)",,,,,Km,380 ± 40 µM
C[C@H]1CN(c2n[nH]c3nc(N[C@H]4CC[C@H](NS(=O)(=O)CCC(F)(F)F)CC4)ncc23)CCO1,"Tight junction protein 1 (TJP1, Homo sapiens, UniProt Q07157)","Kinobeads competition, measured: TJP1",,"0.8 µM, unit not given",baseline: vehicle,remaining binding,0.95
O=C(c1ccc(Cl)cc1)N1CCN2C(=O)N(OC(=O)N3CCOc4ccccc43)C(=O)C2C1 (stereo not shown),"Lysosomal phospholipase A and acyltransferase (PLA2G15, Homo sapiens, UniProt Q8NCC3)",MS-based ABPP,SW-620 conditioned medium,"10 µM, 1 h, 37 °C","baseline: compound over DMSO, lower = more inhibition",median protein ratio,1.12
O=C(O)c1ccccc1,"Germin-like protein subfamily 3 member 1 (GLP1, Arabidopsis thaliana, UniProt P94040)",microscale thermophoresis,Arabidopsis protoplast extract,concentration not given,,binding,no binding
OB(O)CSc1nc2ccccc2n1Cc1ccc(C(F)(F)F)cc1C(F)(F)F,"Regulatory protein BlaR1, sensor domain (blaR1, Staphylococcus aureus, UniProt P18357)","thermal stability, nanoDSF",,"concentration not given, BlaR 0.5 mg/mL",,melting temperature,53.5 ± 0.2 °C
COc1cc2c3cc1Oc1cc(ccc1O)C[C@@H]1c4c(cc(OC)c(O)c4Oc4ccc(cc4)C[C@@H]3N(C)CC2)CC[N+]1(C)C,"Chrnd/Chrna1/Chrne (Mus musculus, UniProt P02716+P04756+P20782)",two-electrode voltage clamp,mouse hemidiaphragm,up to 0.5 µM,,voltage sensitivity change,no effect
Nc1ncnc2c1ncn2[C@@H]1O[C@H](COP(=O)(O)OP(=O)(O)NP(=O)(O)O)[C@@H](O)[C@H]1O,"Cell cycle histidine kinase CckA, cytoplasmic region (Caulobacter vibrioides, UniProt Q9X688)",isothermal titration calorimetry,Caulobacter crescentus,"concentration not given, 12 °C, together with: without c-di-GMP",,binding enthalpy (ΔH),-1.4 kcal/mol

# Some of these lines once more:
SMILES,target,test,test system,conditions,scale,measurement,value
CO[P@@](=O)(Oc1ccccc1)Oc1ccc([N+](=O)[O-])cc1,"had (Sphingobium sp. TCM1, UniProt A0A077JBW9)",,,,,Km,380 ± 40 µM
C[C@H]1CN(c2n[nH]c3nc(N[C@H]4CC[C@H](NS(=O)(=O)CCC(F)(F)F)CC4)ncc23)CCO1,"Tight junction protein 1 (TJP1, Homo sapiens, UniProt Q07157)","Kinobeads competition, measured: TJP1",,"0.8 µM, unit not given",baseline: vehicle,remaining binding,0.95
O=C(c1ccc(Cl)cc1)N1CCN2C(=O)N(OC(=O)N3CCOc4ccccc43)C(=O)C2C1 (stereo not shown),"Lysosomal phospholipase A and acyltransferase (PLA2G15, Homo sapiens, UniProt Q8NCC3)",MS-based ABPP,SW-620 conditioned medium,"10 µM, 1 h, 37 °C","baseline: compound over DMSO, lower = more inhibition",median protein ratio,1.12
O=C(O)c1ccccc1,"Germin-like protein subfamily 3 member 1 (GLP1, Arabidopsis thaliana, UniProt P94040)",microscale thermophoresis,Arabidopsis protoplast extract,concentration not given,,binding,no binding
